Measurements collected from several papers.
Protocols differ between the studies behind these lines. “And” joins repeats or separate records; there may be more than shown. ± marks the error that the study gave.
CYP2D6: Cytochrome P450 2D6 (CYP2D6, Homo sapiens, UniProt P10635)
Sequence of UniProt P10635 (whole entry, looked up): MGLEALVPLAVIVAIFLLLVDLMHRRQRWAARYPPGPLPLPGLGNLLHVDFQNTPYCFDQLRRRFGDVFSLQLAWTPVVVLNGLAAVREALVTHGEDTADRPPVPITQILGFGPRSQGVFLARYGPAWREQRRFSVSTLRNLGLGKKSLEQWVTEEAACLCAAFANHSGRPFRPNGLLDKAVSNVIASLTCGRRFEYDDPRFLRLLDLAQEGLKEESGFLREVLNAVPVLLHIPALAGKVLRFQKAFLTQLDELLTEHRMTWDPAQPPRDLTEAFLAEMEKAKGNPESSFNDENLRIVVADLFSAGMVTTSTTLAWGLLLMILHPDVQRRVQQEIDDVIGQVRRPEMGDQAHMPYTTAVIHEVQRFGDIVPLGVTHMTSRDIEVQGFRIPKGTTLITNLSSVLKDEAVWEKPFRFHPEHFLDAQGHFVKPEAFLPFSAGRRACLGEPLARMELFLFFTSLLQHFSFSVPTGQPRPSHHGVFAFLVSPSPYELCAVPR
USP16 ZnF-UBD domain: Ubiquitin carboxyl-terminal hydrolase 16, ZnF-UBD domain (USP16, Homo sapiens, UniProt Q9Y5T5)
Sequence of UniProt Q9Y5T5 (whole entry, looked up): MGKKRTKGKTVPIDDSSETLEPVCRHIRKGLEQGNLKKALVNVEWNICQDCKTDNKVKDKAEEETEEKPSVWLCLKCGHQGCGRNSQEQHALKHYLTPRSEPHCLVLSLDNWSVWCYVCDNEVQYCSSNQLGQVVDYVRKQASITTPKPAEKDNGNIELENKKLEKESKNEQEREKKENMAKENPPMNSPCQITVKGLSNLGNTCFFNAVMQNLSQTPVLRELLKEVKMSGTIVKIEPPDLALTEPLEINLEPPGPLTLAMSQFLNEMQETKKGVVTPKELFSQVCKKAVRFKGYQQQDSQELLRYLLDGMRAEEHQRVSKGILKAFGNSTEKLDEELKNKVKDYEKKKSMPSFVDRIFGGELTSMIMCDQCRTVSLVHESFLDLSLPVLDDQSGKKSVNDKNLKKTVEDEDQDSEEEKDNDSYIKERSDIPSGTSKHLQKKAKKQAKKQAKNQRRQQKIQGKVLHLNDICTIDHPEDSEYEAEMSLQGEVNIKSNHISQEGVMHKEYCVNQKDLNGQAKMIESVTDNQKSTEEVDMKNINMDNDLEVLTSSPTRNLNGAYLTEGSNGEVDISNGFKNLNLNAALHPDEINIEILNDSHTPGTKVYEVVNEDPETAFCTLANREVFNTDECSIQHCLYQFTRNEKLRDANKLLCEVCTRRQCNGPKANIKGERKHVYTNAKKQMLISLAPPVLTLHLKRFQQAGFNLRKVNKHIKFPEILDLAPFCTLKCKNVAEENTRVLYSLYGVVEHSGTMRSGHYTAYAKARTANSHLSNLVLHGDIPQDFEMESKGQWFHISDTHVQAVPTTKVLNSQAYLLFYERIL
Triggering receptor expressed on myeloid cells 2: Triggering receptor expressed on myeloid cells 2 (Homo sapiens, UniProt Q9NZC2)
Sequence of UniProt Q9NZC2 (whole entry, looked up): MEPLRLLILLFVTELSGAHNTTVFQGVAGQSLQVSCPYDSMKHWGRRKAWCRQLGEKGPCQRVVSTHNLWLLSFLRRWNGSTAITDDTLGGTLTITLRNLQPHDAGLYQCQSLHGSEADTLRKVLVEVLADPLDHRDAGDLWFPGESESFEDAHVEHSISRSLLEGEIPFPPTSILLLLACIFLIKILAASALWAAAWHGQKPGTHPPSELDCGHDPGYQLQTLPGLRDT
HDAC8: Histone deacetylase 8 (HDAC8, Homo sapiens, UniProt Q9BY41)
Sequence of UniProt Q9BY41 (whole entry, looked up): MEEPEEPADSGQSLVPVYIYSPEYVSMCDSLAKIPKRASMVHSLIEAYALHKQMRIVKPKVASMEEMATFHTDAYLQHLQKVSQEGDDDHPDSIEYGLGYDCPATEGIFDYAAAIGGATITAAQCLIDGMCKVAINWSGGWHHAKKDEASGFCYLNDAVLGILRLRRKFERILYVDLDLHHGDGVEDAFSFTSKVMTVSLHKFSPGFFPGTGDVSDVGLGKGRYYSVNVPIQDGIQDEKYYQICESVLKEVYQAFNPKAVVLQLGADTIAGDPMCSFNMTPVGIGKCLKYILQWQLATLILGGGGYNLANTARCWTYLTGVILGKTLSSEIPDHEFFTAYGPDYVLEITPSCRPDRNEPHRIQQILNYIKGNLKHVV
CYP2J2: Cytochrome P450 2J2 (CYP2J2, Homo sapiens, UniProt P51589)
Sequence of UniProt P51589 (whole entry, looked up): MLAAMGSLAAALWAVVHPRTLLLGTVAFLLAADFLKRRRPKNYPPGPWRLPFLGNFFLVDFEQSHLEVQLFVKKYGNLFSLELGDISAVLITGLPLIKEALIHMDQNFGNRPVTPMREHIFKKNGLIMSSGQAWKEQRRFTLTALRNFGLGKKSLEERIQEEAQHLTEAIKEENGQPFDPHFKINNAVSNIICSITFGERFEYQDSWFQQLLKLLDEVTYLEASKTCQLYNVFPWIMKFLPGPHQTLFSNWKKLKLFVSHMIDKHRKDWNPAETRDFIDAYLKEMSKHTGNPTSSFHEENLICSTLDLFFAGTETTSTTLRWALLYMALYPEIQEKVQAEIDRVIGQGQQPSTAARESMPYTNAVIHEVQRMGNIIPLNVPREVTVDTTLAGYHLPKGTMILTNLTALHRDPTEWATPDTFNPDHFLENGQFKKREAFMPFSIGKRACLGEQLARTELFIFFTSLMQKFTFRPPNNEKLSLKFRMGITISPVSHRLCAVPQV
CSNK1A1: Casein kinase I isoform alpha (CSNK1A1, Homo sapiens, UniProt P48729)
Sequence of UniProt Q16774 (whole entry, unmodified, looked up): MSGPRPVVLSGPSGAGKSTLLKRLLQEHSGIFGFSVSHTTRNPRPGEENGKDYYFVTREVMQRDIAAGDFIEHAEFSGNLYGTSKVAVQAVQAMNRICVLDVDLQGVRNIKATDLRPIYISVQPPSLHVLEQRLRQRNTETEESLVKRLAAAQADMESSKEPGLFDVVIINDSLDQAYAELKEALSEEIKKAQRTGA
Sequence of UniProt P48729 (whole entry, looked up): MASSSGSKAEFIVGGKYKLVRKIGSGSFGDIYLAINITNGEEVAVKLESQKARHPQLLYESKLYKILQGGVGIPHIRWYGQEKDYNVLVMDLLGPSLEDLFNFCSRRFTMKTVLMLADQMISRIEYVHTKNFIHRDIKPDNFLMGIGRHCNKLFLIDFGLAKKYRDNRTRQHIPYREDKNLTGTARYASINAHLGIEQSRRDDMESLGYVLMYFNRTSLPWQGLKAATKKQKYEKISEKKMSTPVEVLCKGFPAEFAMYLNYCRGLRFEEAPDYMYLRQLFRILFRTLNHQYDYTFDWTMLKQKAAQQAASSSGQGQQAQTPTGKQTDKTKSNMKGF
Sequence of UniProt Q6NT16 (whole entry, unmodified, looked up): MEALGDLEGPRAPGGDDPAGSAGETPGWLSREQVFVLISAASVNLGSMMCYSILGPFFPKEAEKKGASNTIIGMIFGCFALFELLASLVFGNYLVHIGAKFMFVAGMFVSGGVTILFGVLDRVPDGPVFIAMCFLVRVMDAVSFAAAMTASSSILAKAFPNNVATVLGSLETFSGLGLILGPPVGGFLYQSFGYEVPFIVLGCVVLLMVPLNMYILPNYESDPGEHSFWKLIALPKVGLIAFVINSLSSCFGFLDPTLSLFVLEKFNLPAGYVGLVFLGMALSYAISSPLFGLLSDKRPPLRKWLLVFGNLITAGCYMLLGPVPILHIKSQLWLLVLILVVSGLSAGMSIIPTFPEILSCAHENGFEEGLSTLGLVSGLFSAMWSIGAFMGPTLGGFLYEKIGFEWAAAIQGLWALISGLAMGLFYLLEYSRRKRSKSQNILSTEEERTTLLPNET
Sequence of UniProt Q9BQ39 (whole entry, unmodified, looked up): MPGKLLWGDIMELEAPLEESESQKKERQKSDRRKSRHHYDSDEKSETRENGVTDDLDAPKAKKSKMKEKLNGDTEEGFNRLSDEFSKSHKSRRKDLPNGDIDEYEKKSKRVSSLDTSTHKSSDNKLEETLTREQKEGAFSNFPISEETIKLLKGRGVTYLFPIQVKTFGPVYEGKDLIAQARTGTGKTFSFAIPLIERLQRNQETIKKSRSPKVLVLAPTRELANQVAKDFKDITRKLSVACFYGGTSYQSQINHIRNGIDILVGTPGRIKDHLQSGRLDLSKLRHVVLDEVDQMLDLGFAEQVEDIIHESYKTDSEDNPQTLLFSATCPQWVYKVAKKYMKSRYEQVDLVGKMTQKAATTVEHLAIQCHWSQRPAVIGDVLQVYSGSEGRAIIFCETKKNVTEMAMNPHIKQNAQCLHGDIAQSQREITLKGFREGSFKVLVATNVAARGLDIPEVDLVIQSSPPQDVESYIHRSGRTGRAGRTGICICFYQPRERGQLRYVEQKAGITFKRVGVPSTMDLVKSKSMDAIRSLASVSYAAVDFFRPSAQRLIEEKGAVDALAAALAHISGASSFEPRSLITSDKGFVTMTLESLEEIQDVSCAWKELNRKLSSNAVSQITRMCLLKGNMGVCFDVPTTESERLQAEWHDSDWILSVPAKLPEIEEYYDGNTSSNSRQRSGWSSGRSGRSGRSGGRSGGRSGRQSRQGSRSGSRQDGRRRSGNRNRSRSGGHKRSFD
Sequence of UniProt Q96C86 (whole entry, unmodified, looked up): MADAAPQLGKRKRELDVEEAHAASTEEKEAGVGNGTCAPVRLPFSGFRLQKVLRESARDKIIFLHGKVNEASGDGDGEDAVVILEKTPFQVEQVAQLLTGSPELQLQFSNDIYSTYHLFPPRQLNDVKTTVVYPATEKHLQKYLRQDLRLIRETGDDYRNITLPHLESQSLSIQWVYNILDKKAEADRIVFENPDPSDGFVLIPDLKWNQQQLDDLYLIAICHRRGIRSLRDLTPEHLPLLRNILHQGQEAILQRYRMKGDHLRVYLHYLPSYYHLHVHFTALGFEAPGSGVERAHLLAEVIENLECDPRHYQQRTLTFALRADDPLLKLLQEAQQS
Sequence of UniProt P27505 (whole entry, looked up): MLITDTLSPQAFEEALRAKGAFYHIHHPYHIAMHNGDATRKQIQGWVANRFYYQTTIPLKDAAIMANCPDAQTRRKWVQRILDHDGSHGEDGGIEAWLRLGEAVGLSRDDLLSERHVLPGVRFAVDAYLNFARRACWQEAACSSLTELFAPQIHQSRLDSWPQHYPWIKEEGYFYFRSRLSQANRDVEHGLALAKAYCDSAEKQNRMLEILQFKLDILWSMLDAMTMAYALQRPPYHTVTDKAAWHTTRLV

SMILES	target	assay	test system	setting	Kd
Nc1nc2c(ncn2[C@@H]2O[C@@H]3COP(=O)(O)O[C@H]4[C@@H](O)[C@H](n5cnc6c(N)ncnc65)O[C@@H]4COP(=O)(O)O[C@H]3[C@H]2O)c(=O)[nH]1	capV (Acinetobacter baumannii, UniProt A0A505MGQ1)	–	–	–	0.00268 ± 0.00024 µM
Nc1[nH]ncc1-c1ccccc1	CYP2D6	binding	–	20 min, pH 7.4, purified protein, 2% DMSO	74.1 µM
O=C(O)c1cc(C(=O)O)c2c(n1)c(O)c(O)c1cc(C(=O)O)[nH]c12	Pyrroloquinoline-quinone synthase (pqqC, Klebsiella pneumoniae, UniProt P27505)	fluorescence titration	–	pH 8.0, room temperature, anaerobic	0.05 µM
Cc1cc2nc3c(=O)[nH]c(=O)nc-3n(C[C@H](O)[C@H](O)[C@H](O)COP(=O)(O)OP(=O)(O)OC[C@H]3O[C@@H](n4cnc5c(N)ncnc54)[C@H](O)[C@@H]3O)c2cc1C	Pre-mRNA cleavage complex 2 protein Pcf11 (PCF11, Homo sapiens, UniProt O94913)	binding, MS pulldown competition	SW-620 cell lysate	–	0.062 µM
Nc1nc(-c2ccc(Cl)c(S(N)(=O)=O)c2)cs1	CA7 (Homo sapiens, UniProt P43166)	thermal shift	–	pH 7.0, 25 °C	0.067 µM
c1ccc(-c2ccc(OCCn3ccnc3)cc2)cc1	CYP2D6	binding	–	20 min, pH 7.4, purified protein, 2% DMSO	2.84 µM
O=C(O)CCC(=O)N1CCc2ccccc21	USP16 ZnF-UBD domain	–	–	–	> 1000 µM
C[n+]1cn([C@@H]2O[C@H](COP(=O)(O)O)[C@@H](O)[C@H]2O)c2nc(N)[nH]c(=O)c21	m7GpppX diphosphatase, WT/mutant heterodimer (DCPS, Homo sapiens, UniProt Q96C86)	binding, Trp fluorescence quenching	10% glycerol	20 °C	0.169 µM
C=C1CC(C(=O)Nc2cc(C(=O)NC)cc(-c3cccs3)c2OC)C1	Triggering receptor expressed on myeloid cells 2	binding	–	–	76.4 µM and 76 µM
Cn1cc(-c2ccc(S(=O)(=O)n3ccc(/C=C/C(=O)Nc4ccccc4N)c3)cc2)cn1	HDAC8	inhibitor, competition pulldown	SW620 and MV4-11 lysate	1 h	> 30.2 µM
C[N+](C)(C)Cc1cccc(N=Nc2cccc(C[N+](C)(C)C)c2)c1	muscarinic receptor, Rana	agonist-induced potassium current, antagonist, Schild plot intercept	atrial trabeculae	with: carbachol	5 µM
Nc1ncnc2c1ncn2[C@@H]1O[C@H](CO[P@](=O)(O)O[P@](=O)(O)O[P@@](=O)(O)S)[C@@H](O)[C@H]1O	GUK1 (Homo sapiens, UniProt Q16774, S18A)	binding, ITC	–	25 °C, with: GMP	140 ± 10 µM
O=C(O)Cc1cccc2cccnc12	USP16 ZnF-UBD domain	–	–	–	> 1000 µM
CC(C)(C)c1ccc(S(=O)(=O)Nc2ccc(-n3ccnc3)cc2)cc1	CYP2D6	binding	–	20 min, pH 7.4, purified protein, 2% DMSO	0.549 µM
COc1cccc2c1C(=O)c1c(O)c3c(c(O)c1C2=O)C[C@@](O)(/C(C)=N/NC(=O)c1ccccc1)C[C@@H]3O[C@H]1C[C@H](N)[C@H](O)[C@H](C)O1	CYP2J2	–	–	2 min, pH 7.4	10.1 ± 1.11 µM
Nc1ncnc2c1ncn2[C@@H]1O[C@H](CSCC[C@H](N)C(=O)O)[C@@H](O)[C@H]1O	O-methyltransferase (Sorghum bicolor, UniProt A0A1B6PFV1)	binding	–	with: saturating resveratrol	3.96 ± 0.6 µM
CS(=O)(=O)c1cccc(CNc2nc(Nc3ccc4c(c3)CCC(=O)N4)ncc2C(F)(F)F)c1	Carboxypeptidase Z (CPZ, Homo sapiens, UniProt Q66K79)	binding	–	–	7.5 µM
CCCCOc1ccc(CC(=O)NO)cc1	HDAC8	inhibitor, competition pulldown	SW620 and MV4-11 lysate	1 h	> 30.2 µM
CC(C)(COP(=O)(O)OP(=O)(O)OC[C@H]1O[C@@H](n2cnc3c(N)ncnc32)[C@H](O)[C@@H]1OP(=O)(O)O)[C@@H](O)C(=O)NCCC(=O)NCCS	RNA cytidine acetyltransferase (Homo sapiens, UniProt Q9H0A0)	competitor, competition MS pulldown	SW-620 cell lysate	with: photo-immobilized beads	44.1 µM
CC(=O)NCC(=O)N[C@@H](Cc1ccc(O)cc1)C(=O)NCC(=O)N[C@@H](CO)C(=O)N[C@@H](CO)C(=O)N[C@@H](CO)C(=O)N[C@@H](CCCNC(=N)N)C(=O)N[C@@H](CCCNC(=N)N)C(=O)N[C@@H](C)C(=O)N1CCC[C@H]1C(=O)N[C@@H](CCC(N)=O)C(=O)N[C@H](C(N)=O)[C@@H](C)O	IGF-1R human	binding, microscale thermophoresis	–	–	12 ± 1.1 µM
O=C(O)CN1Cc2ccccc2C1=O	USP16 ZnF-UBD domain	–	–	–	> 1000 µM
COc1cc2c(cc1OC)[C@H]1C[C@@H](O)[C@H](CC(C)C)CN1CC2	MFS-type transporter SLC18B1 (SLC18B1, Homo sapiens, UniProt Q6NT16, F79A)	binder	–	radiolabeled protein variants	49 µM

SMILES	target	assay	test system	setting	Kd
O=C(O)CCc1ccccc1OCc1ccccn1	USP16 ZnF-UBD domain	–	–	–	48.2 µM
Brc1ccc2nccnc2c1	CSNK1A1	binding, surface plasmon resonance	–	up to 50 µM	no binding
NCCCNCCCCNCCCN	MFS-type transporter SLC18B1 (SLC18B1, Homo sapiens, UniProt Q6NT16, E171A)	binder	–	–	230 µM
O=C(O)CNC(=O)c1ccc(C(=O)N2CCC(c3ccc(Cl)cc3)CC2)cn1	USP16 ZnF-UBD domain	–	–	–	436 µM
Nc1ncnc2c1ncn2[C@@H]1O[C@H](COP(=O)(O)OP(=O)(O)O)[C@@H](O)[C@H]1O	GUK1 (Homo sapiens, UniProt Q16774, R133A)	binding, ITC	–	25 °C, with: GMP	> 200 µM
CCCCCCCCCCCCCCCC(=O)O	uncharacterized protein (Kocuria marina, UniProt A0A0B0D9P4)	heme spectral shift, substrate, UV-visible spectral titration	–	–	7.66 µM
COc1cccc2c1C(=O)c1c(O)c3c(c(O)c1C2=O)C[C@@](O)(C(=O)CO)C[C@@H]3O[C@H]1C[C@H](N)[C@@H](O)[C@H](C)O1	CYP2J2	–	–	2 min, pH 7.4	14.7 ± 1.99 µM
OC[C@H]1OC(O)[C@H](O)[C@@H](O)[C@@H]1O (stereo partly shown)	ATP-dependent RNA helicase DDX50 (DDX50, Homo sapiens, UniProt Q9BQ39)	microscale thermophoresis	PBST	25 °C, ATP-binding domain	43.6 ± 23.1 µM
O=C(O)CCC(=O)c1ccc2c(c1)CCC(=O)N2	USP16 ZnF-UBD domain	–	–	–	167 µM
Cc1ncc(CO)c(CO)c1O	MRP4 Myzus persicae	binding, microscale thermophoresis	–	–	51.6 µM
O=C(O)CCc1cnn(-c2ccccc2)c1	USP16 ZnF-UBD domain	–	–	–	> 1000 µM
CCC1(c2cnc[nH]2)Cc2ccccc2C1	CYP2D6	binding	–	20 min, pH 7.4, purified protein, 2% DMSO	4.15 µM
C=C1CC(C(=O)Nc2cc(C(=O)NC)cc(-c3ccc(N4CCOCC4)cc3)c2OC)C1	Triggering receptor expressed on myeloid cells 2	binding	–	–	146 ± 9.7 µM
NS(=O)(=O)c1ccccc1	CA6 (Homo sapiens, UniProt P23280)	binding, thermal shift	–	pH 7.0, 25 °C	5 µM
COc1cc(C(C)=O)c(F)cc1O	CSNK1A1	binding, surface plasmon resonance	–	up to 50 µM	no binding
O=C(O)COc1cnc2ccccc2n1	USP16 ZnF-UBD domain	–	–	–	> 1000 µM
Cc1cc(Nc2cc3ncccc3c(N[C@@H]3C[C@H]4CC[C@@H](C3)N4CCC#N)n2)n[nH]1	DCLK3 (Homo sapiens, UniProt Q9C098)	binding, KINOMEscan	–	–	0.024 µM
O=C(OCC1COC(Cn2ccnc2)(c2ccc(Cl)cc2Cl)O1)c1ccccc1 (stereo not shown)	CYP2D6	binding	–	20 min, pH 7.4, purified protein, 2% DMSO	4.28 µM
Nc1ncnc2c1ncn2[C@@H]1O[C@H](COP(=O)(O)OP(=O)(O)O)[C@@H](O)[C@H]1O	CKMT1A (Homo sapiens, UniProt P12532, E265Q)	microscale thermophoresis	–	pH 8.5, with: phosphocreatine 10 mM	3 ± 2 µM
OC[C@@H]1CO[C@](Cn2ccnc2)(c2ccc(Cl)cc2Cl)O1 (relative stereo)	CYP2D6	binding	–	20 min, pH 7.4, purified protein, 2% DMSO	6.09 µM
Nc1ncnc2c1ncn2[C@@H]1O[C@H](COP(=O)(O)OP(=O)(O)OP(=O)(O)O)[C@@H](O)[C@H]1O	ATP-dependent RNA helicase DDX50 (DDX50, Homo sapiens, UniProt Q9BQ39, K187R)	binding, microscale thermophoresis	–	25 °C, no glucose	6.95 ± 3.82 µM

A few entries again:
SMILES	target	assay	test system	setting	Kd
C=C1CC(C(=O)Nc2cc(C(=O)NC)cc(-c3cccs3)c2OC)C1	Triggering receptor expressed on myeloid cells 2	binding	–	–	76.4 µM and 76 µM
O=C(O)CCC(=O)N1CCc2ccccc21	USP16 ZnF-UBD domain	–	–	–	> 1000 µM
O=C(O)COc1cnc2ccccc2n1	USP16 ZnF-UBD domain	–	–	–	> 1000 µM
CCCCCCCCCCCCCCCC(=O)O	uncharacterized protein (Kocuria marina, UniProt A0A0B0D9P4)	heme spectral shift, substrate, UV-visible spectral titration	–	–	7.66 µM
